Published values pooled from the literature.
Lines come from different studies, so protocols differ. “And” joins repeats or separate records; there may be more than shown. ± marks the error that the study gave.
Chain of UniProt P81908 (whole entry, looked up): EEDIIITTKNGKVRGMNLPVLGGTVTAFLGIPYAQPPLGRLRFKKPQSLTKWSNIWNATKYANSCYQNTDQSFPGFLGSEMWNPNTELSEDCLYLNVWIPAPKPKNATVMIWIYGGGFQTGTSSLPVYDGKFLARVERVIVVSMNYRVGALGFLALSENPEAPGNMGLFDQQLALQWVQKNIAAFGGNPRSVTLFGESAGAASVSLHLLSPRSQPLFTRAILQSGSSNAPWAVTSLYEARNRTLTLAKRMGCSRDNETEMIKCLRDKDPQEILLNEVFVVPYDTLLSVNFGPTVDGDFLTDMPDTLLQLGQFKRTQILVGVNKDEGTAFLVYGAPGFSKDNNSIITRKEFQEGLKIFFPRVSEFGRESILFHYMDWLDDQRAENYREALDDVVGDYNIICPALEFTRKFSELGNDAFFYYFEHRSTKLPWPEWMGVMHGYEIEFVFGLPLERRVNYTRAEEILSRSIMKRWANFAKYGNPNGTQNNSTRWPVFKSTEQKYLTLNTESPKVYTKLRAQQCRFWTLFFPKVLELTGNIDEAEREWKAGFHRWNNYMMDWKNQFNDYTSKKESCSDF
Chain of UniProt Q86XQ3 (whole entry, looked up): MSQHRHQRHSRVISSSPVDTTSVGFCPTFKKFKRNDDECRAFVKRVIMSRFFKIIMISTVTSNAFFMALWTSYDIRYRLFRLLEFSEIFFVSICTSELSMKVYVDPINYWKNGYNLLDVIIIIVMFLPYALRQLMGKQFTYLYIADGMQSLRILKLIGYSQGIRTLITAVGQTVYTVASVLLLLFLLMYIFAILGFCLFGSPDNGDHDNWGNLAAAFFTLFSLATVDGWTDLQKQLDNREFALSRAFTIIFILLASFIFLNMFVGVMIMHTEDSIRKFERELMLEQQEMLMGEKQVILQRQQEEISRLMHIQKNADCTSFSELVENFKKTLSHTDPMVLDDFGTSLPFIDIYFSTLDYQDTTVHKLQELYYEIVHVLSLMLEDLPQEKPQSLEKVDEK
Chain of UniProt Q9NQR1 (whole entry, looked up): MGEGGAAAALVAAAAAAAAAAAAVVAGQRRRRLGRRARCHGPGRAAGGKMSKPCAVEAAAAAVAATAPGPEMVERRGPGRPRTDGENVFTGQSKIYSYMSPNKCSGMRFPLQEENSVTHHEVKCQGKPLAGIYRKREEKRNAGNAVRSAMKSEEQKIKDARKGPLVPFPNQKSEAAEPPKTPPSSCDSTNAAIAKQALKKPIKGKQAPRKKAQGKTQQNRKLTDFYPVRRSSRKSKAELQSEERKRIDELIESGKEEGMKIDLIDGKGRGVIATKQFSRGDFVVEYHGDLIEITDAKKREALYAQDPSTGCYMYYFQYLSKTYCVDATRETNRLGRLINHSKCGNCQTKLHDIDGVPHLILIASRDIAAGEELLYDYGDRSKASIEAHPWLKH
Chain of UniProt P39877 (whole entry, looked up): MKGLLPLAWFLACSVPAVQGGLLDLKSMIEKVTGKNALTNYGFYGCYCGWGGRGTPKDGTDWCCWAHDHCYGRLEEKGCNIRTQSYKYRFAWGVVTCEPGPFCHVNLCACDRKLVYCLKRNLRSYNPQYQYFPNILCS
Chain of UniProt P19492 (whole entry, unmodified, looked up): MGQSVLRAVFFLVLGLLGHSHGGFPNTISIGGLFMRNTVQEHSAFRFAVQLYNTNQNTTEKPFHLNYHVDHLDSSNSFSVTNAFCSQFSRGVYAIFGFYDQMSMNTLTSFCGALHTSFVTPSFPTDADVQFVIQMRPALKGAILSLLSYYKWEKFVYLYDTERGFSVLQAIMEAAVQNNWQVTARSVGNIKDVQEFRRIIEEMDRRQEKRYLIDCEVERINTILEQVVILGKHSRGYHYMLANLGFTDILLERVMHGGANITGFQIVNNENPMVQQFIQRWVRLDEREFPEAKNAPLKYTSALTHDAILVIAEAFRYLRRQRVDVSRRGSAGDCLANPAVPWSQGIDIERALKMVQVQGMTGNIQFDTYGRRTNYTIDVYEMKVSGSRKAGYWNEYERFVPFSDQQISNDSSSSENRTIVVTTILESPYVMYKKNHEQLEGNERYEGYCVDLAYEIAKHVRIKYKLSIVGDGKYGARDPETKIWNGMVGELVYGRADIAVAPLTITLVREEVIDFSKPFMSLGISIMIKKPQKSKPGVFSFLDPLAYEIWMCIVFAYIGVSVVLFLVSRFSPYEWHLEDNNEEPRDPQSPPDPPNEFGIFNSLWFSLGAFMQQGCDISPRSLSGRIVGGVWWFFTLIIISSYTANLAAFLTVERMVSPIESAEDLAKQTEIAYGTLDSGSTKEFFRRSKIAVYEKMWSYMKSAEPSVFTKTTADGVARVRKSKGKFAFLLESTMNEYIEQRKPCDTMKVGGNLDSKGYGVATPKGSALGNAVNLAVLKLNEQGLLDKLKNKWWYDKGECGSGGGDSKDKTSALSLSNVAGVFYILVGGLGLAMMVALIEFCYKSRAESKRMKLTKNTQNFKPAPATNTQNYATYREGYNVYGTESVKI
Chain of UniProt P22789 (whole entry, looked up): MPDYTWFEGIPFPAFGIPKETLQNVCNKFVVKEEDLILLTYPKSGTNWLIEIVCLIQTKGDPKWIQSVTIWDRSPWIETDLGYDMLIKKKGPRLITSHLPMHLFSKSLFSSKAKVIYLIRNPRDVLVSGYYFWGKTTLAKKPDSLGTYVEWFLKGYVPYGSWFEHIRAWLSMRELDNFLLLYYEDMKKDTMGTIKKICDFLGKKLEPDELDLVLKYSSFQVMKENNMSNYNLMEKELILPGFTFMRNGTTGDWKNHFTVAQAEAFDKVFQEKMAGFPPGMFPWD
Chain of UniProt P06276 (whole entry, looked up): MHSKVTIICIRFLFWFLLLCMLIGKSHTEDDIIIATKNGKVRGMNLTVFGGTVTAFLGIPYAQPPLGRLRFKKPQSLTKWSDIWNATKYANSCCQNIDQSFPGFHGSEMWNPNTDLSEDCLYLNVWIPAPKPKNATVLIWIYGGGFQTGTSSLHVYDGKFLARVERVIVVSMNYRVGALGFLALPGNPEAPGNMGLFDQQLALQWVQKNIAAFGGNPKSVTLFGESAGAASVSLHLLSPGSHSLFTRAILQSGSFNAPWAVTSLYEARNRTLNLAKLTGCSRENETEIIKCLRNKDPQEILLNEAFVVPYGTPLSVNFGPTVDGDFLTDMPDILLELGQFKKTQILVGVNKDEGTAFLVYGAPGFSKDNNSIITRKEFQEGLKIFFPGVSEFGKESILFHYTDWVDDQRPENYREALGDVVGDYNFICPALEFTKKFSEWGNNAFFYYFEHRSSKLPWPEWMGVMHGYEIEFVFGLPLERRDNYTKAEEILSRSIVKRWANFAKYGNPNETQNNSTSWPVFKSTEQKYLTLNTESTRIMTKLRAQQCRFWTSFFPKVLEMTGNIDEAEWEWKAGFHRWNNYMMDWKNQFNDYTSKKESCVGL
Chain of UniProt Q2PAY2 (whole entry, looked up): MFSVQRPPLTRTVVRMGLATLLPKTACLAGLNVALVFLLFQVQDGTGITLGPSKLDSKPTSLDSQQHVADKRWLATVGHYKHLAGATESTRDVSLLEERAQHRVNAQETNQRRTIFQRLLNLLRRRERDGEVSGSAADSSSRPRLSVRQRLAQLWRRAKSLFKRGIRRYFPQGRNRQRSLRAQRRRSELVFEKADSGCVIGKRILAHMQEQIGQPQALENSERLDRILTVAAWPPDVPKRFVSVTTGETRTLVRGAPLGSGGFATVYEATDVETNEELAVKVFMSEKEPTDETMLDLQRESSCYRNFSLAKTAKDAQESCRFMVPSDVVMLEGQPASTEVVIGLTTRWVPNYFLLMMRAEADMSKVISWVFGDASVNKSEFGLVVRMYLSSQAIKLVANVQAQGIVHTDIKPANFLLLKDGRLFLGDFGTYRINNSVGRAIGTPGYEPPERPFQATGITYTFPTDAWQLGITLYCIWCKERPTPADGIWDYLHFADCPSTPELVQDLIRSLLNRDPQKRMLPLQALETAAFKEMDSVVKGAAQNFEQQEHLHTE
Chain of UniProt P07237 (whole entry, looked up): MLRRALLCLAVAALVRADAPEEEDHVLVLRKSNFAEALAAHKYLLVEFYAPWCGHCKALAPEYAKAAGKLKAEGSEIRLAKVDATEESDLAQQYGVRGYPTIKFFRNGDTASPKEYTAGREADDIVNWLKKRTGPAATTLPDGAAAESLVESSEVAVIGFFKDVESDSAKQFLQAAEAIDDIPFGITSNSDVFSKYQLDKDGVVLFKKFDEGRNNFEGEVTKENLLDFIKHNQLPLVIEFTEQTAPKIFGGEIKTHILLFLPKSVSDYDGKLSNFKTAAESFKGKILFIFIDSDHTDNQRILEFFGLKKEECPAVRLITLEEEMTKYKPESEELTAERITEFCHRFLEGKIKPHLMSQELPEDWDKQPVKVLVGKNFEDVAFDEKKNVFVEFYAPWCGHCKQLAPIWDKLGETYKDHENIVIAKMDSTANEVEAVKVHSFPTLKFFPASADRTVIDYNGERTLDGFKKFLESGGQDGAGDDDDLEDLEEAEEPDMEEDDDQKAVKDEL
Chain of UniProt Q7RTX7 (whole entry, looked up): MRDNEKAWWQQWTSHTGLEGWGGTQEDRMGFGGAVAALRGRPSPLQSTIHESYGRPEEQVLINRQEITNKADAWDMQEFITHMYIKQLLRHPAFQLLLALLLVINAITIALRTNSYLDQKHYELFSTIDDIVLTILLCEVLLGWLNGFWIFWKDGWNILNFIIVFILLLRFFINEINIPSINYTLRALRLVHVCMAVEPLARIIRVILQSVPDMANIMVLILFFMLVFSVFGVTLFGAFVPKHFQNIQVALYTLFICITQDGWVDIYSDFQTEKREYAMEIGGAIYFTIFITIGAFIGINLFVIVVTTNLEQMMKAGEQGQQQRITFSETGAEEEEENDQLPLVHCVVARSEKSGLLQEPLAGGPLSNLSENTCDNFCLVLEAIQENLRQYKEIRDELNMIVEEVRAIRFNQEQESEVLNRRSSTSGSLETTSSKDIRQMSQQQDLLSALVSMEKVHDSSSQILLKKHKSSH

Compound	tested on	test	system	setting	endpoint	result
COc1ccc(NC(=O)N2CCCCN3[C@H](CO)[C@H](c4ccc(C#Cc5ccccc5C#N)cc4)[C@@H]3C2)cc1	Phenylalanine--tRNA ligase alpha subunit (Plasmodium falciparum, UniProt Q8I246)	aminoacylation activity, inhibitor	–	–	IC50	0.221 µM
CCc1c(C(=O)C(N)=O)c2c(OCC(=O)O)cccc2n1Cc1ccccc1	Phospholipase A2 group V (PLA2G5, Homo sapiens, UniProt P39877)	enzyme activity, LC-MS mixed micelle, refers to: lysophosphatidylglycerol	–	with: PAPG substrate	IC50	2.14 µM
Oc1c(Cl)cc(-c2ccccc2Cl)cc1Cl	Sulfotransferase 2A6 (Sult2a6, Rattus norvegicus, UniProt P22789)	enzyme activity, inhibitor	–	6 min, 37 °C, with: DHEA 10 µM	IC50	160 µM
CN[C@@](C)(C[18F])C(=O)O	A549 tumour model	–	host not given, bone	2 h, tumour-bearing	tracer uptake	1.9 %ID/g
CN1C(=O)[C@]23SS[C@@]1(C)C(=O)N2[C@H]1Nc2ccccc2[C@@]1([C@@]12c4ccccc4N[C@@H]1N1C(=O)[C@@]4(C)SS[C@]1(C(=O)N4C)[C@H]2O)[C@@H]3O	N-lysine methyltransferase KMT5A (KMT5A, Homo sapiens, UniProt Q9NQR1)	methyltransferase activity, inhibitor	–	with: 1 µM [3H]SAM	IC50	> 10 µM
CC(C)Cc1ccc(NC(=O)Oc2ccc3c(c2)[C@]2(C)CCN[C@@H]2N3)cc1	Cholinesterase (BCHE, Homo sapiens, UniProt P06276)	enzyme activity, inhibitor, immobilized enzyme reactor, HPLC-UV	immobilized recombinant human enzyme	inhibition plateau, L-tartrate salt	IC50	0.00801 ± 0.00024 µM
NC(Cc1onc(O)c1Cl)C(=O)O (stereo not drawn)	Glutamate receptor 3, S1S2 ligand-binding domain (Rattus norvegicus, UniProt P19492, del531-655/S657T/V656G)	–	–	–	IC50	55 ± 4 µM
C[C@@H]1CC[C@]2(C(=O)O[C@@H]3O[C@H](CO)[C@@H](O)[C@H](O)[C@H]3O)CC[C@]3(C)C(=CC[C@@H]4[C@@]5(C)C[C@@H](O)[C@H](O)[C@@](C)(CO)[C@@H]5CC[C@]43C)[C@@H]2[C@]1(C)O	acetylcholinesterase	inhibitor, Ellman	–	20 min pre-incubation, 30 min, pH 7.4, with: acetylthiocholine	IC50	45.5 µg/mL
O=C(NCCCCCCCn1ccc2ccc(F)cc21)Oc1ccccc1	Cholinesterase (BCHE, Equus caballus, UniProt P81908)	enzyme activity, inhibitor, HPLC	–	–	IC50	3.5 µM and ~4 µM
CO[C@H]1CC=C2CCN3CCC4=C(CC(=O)OC4)[C@]23C1	Neuronal acetylcholine receptor; alpha4/beta2 (Rattus norvegicus, UniProt P09483+P12390)	ligand displacement, radioligand	–	cell membranes	IC50	0.345 µM
NCCCN1CCN(CCO)CC1	Thioredoxin glutathione reductase (Schistosoma mansoni, UniProt Q962Y6)	enzyme activity, inhibitor, absorbance	–	with preincubation	IC50	760 µM
N#CCCc1ccc2c(c1)-c1[nH]c3ccc([N+](=O)[O-])cc3c1CC(=O)N2	Putative glycogen synthase kinase (Leishmania major, UniProt Q4QE15, D105E)	enzyme activity, inhibitor	–	90 min, 30 °C, with: ATP 2 µM	IC50	4.76 µM
CC(C)(NS(=O)(=O)c1ccc(Oc2ccc(F)cc2)cc1)C(=O)NO	ERRα (human)	reporter gene, antagonist, luciferase reporter qHTS	–	–	IC50	2.66 µM
C#C[C@]1(O)CC[C@H]2[C@@H]3CCC4=CC(=O)CC[C@@H]4[C@H]3CC[C@@]21CC	CatSper channel complex (Homo sapiens, UniProt Q7RTX7+Q86XQ3+Q8NEC5+Q96P56)	calcium influx, inhibitor	human sperm	pH 8.2, with: 140 mM K+	IC50	> 10 µM
Cn1ncnc2c(=O)n(C)c(=O)nc1-2	Protein disulfide-isomerase (P4HB, Homo sapiens, UniProt P07237)	enzyme activity, inhibitor, absorbance	–	–	IC50	0.105 µM
CC(C)(O/N=C(\C(=O)N[C@@H]1C(=O)N2C(C(=O)[O-])=C(C[n+]3ccccc3)CS[C@H]12)c1csc(N)n1)C(=O)O	mrcB (Pseudomonas aeruginosa, UniProt G3XD31)	ligand displacement, fluorescence	–	cell membranes	IC50	7.14 µM
NS(=O)(=O)CCc1cccc(Nc2nccc(-c3c(-c4cccc(NC(=O)c5c(F)cccc5F)c4)nn4ccccc34)n2)c1	ROP18 (Toxoplasma gondii, UniProt Q2PAY2)	enzyme activity, inhibitor	–	–	IC50	0.69 µM
O=C(OC(C(F)(F)F)C(F)(F)F)N1CCC(C(O)(c2ccc3c(c2)OCO3)c2ccc3c(c2)OCO3)CC1	Monoacylglycerol lipase ABHD6 (Abhd6, Rattus norvegicus, UniProt Q5XI64)	competitive ABPP	rat brain membrane proteome	–	IC50	1.6 µM

Repeated from above:
Compound	tested on	test	system	setting	endpoint	result
NC(Cc1onc(O)c1Cl)C(=O)O (stereo not drawn)	Glutamate receptor 3, S1S2 ligand-binding domain (Rattus norvegicus, UniProt P19492, del531-655/S657T/V656G)	–	–	–	IC50	55 ± 4 µM
